Published values of several laboratories.
Every numbered part comes from another study and shows a few of its results, in no order. Several values in a cell are separate wells, animals, samples, runs or records.
Sequence of UniProt P28223 (whole entry, looked up): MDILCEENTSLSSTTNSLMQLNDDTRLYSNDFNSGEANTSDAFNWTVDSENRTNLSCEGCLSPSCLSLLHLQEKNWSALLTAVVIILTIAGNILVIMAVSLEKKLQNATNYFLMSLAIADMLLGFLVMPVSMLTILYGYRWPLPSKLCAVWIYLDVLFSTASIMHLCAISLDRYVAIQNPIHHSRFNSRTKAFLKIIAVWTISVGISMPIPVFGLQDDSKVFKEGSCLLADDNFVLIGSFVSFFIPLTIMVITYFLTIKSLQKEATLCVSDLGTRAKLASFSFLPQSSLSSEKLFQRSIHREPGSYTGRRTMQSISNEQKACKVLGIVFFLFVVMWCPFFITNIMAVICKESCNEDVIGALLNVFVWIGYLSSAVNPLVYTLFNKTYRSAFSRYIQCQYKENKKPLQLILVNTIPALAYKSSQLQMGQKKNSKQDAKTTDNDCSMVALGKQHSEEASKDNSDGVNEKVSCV
Sequence of UniProt P62344 (whole entry, looked up): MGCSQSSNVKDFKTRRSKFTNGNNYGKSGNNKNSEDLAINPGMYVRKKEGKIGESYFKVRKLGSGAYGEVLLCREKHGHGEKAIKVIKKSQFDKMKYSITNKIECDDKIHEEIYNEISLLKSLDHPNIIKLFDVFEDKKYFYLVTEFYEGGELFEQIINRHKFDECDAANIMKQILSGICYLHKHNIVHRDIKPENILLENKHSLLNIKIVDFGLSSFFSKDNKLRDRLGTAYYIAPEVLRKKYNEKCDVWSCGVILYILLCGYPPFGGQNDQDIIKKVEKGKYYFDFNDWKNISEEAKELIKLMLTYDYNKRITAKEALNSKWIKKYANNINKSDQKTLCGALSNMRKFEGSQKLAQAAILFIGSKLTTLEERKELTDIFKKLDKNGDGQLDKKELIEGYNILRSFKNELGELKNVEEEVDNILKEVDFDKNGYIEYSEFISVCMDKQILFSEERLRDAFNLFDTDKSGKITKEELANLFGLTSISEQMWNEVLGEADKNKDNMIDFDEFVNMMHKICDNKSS
Sequence of UniProt P08908 (whole entry, looked up): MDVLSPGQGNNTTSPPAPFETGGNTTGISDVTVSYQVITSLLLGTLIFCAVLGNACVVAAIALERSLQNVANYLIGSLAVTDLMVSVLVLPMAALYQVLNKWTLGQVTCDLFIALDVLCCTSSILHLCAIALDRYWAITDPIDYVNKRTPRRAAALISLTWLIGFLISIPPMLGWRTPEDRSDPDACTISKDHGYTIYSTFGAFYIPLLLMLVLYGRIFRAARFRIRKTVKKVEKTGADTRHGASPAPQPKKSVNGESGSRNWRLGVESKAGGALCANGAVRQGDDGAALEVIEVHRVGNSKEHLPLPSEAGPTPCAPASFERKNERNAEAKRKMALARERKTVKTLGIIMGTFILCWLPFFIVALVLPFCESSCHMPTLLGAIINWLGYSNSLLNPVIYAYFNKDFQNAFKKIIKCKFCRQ
Sequence of UniProt P08912 (whole entry, looked up): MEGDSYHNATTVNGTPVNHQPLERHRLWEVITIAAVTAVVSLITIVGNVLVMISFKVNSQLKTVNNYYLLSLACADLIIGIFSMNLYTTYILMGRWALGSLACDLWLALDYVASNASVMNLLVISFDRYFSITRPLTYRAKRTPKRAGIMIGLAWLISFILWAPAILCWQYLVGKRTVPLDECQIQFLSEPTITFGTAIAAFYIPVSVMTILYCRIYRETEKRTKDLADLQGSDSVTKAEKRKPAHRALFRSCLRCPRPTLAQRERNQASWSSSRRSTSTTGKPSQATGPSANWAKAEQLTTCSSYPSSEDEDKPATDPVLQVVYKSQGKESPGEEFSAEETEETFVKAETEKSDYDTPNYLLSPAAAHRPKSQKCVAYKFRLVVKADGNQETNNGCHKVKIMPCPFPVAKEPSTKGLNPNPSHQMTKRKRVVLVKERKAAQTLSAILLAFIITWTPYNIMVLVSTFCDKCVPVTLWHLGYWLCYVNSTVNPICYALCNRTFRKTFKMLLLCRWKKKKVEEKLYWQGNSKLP

Series 1 — cell line: mouse MPNST tumor cells; method: high-content nuclear imaging; item: cell number; concentration: 10 µM; time: 12 h; notes: mean of 2 replicates; reference: plate mean; reading: higher = more cells
Structure (SMILES)	nuclei count
CCCC(C)C1(CC)C(=O)NC(=O)NC1=O (stereo not drawn)	-0.174 z-score
OCC[N+]12CN3CN(CN(C3)C1)C2	2.05 z-score
CCCC[N+]1(C)C2CC(OC(=O)C(CO)c3ccccc3)CC1C1OC12 (stereo not drawn)	0.859 z-score
CC[C@@]1(O)C(=O)OCc2c1cc1n(c2=O)Cc2cc3ccccc3nc2-1	-3.38 z-score
c1ccc2c(c1)Nc1ccccc1S2	0.474 z-score
CCN1C[C@]2(COC(=O)c3ccccc3N3C(=O)C[C@H](C)C3=O)CC[C@H](OC)[C@@]34[C@@H]5C[C@H]6[C@H](OC)[C@@H]5[C@](O)(C[C@@H]6OC)[C@](O)([C@@H](OC)[C@H]23)[C@@H]14	0.495 z-score

Series 2 — read-out: enzyme activity; mode: inhibitor; concentration: 10 µM
Target: Calcium/calmodulin-dependent protein kinase type II subunit alpha (CAMK2A, Homo sapiens, UniProt Q9UQM7)
Sequence of UniProt Q9UQM7 (whole entry, looked up): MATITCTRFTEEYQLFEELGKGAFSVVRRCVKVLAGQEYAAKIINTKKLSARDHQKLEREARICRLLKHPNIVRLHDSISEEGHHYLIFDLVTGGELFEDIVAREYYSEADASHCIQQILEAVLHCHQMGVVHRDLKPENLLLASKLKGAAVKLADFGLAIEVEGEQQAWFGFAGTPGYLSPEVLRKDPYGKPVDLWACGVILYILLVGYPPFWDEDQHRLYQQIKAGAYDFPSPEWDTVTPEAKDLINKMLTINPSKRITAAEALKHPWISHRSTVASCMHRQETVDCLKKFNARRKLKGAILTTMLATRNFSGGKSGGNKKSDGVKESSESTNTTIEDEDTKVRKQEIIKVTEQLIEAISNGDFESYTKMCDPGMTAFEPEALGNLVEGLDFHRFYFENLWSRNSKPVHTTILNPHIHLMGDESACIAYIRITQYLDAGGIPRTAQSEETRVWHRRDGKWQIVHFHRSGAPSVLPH
Structure (SMILES)	inhibition [%]
CCC1=N[C@H]2C[C@@]3(C(=O)N(OC)c4ccccc43)[C@H]3C[C@@H]1[C@@H]2CO3	-9
C=C1[C@H]2C[C@@]3(C4C[C@@H]5[C@@]6(C)CC[C@H](O)[C@@]5(C4N(CC)C6)[C@@H]3C[C@H]2O)[C@@H]1O	-15
COC1c2c(ccc3c2OCO3)-c2ccc3cc4c(cc3c2N1C)OCO4 (stereo not drawn)	19
C[C@H]1CCCC(=O)CCC/C=C/c2cc(O)cc(O)c2C(=O)O1	-39
c1cncc(C2CCCCN2)c1 (racemic)	4
COc1cc2c(cc1OC)-c1c(OC)c(OC)cc3c1[C@H](C2)N(C)CC3	-16

Series 3 — read-out: RNA clamping; method: fluorescence polarization; concentration: concentration not given; with: FAM-labelled poly r(AG)8 RNA
Target: Eukaryotic initiation factor 4A-III (Homo sapiens, UniProt P38919)
Sequence of UniProt P38919 (whole entry, looked up): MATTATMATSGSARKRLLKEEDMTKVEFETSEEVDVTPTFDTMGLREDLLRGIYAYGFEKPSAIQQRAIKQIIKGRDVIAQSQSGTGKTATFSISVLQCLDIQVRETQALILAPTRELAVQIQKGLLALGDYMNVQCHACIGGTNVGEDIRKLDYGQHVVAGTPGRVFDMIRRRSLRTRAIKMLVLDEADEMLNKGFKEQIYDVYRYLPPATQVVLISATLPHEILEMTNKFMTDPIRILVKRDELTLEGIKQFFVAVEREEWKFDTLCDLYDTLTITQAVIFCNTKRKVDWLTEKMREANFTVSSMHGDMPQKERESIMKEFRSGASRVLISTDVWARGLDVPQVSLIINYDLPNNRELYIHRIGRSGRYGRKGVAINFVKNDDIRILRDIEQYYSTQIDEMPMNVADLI
SMILES	fluorescence polarization change
COc1ccc([C@@]23Oc4cc(OC)cc(OC)c4[C@]2(O)c2nc(-c4ccc(C(F)(F)F)cc4)[nH]c(=O)c2[C@H]3c2ccccc2)cc1	7.3 mP and 9.2 mP
COc1ccc([C@@]23Oc4cc(OC)cc(OC)c4[C@]2(O)c2nc(-c4cccnc4)[nH]c(=O)c2[C@H]3c2ccccc2)cc1	29.6 mP
COc1ccc([C@@]23Oc4cc(OC)cc(OC)c4[C@]2(O)c2nc(-c4ccccc4)[nH]c(=O)c2[C@H]3c2ccccc2)cc1	2.5 mP
COc1ccc([C@]23Oc4cc(OC)cc(OC)c4[C@](O)([C@H](c4ccccc4)[C@H]2C(=O)NCCCCNC(=O)c2ccccc2)[C@H]3O)cc1	-4.8 mP
COc1ccc([C@]23Oc4cc(OC)cc(OC)c4[C@@]2(O)[C@@H](O)C[C@@H]3c2ccccc2)cc1	-1.8 mP
[2H]C([2H])([2H])C1=N[C@@]2(O)[C@H](C(=O)OC)[C@@H](c3ccccc3)[C@]3(c4ccc(OC)cc4)Oc4cc(OC)cc(OC)c4[C@]23N1	31.9 mP
COC(=O)[C@@H]1[C@@H](O)[C@@]2(O)c3c(OC)cc(OC)cc3O[C@@]2(c2ccc(OC)cc2)[C@H]1c1ccccc1	4 mP
COc1ccc([C@@]23Oc4cc(OC)cc(OC)c4[C@]2(O)c2nc(Cc4ccccc4)[nH]c(=O)c2[C@H]3c2ccccc2)cc1	17.6 mP

Further values, each from its own experiment
SMILES	target	read-out	method	concentration	quantity	result
CNC(=O)c1cc(C(=O)NC2CC2)cn(Cc2ccccc2)c1=O	CHRM5 (Homo sapiens, UniProt P08912)	binding	radioligand binding	10 µM	inhibition	-5.05%
CO[C@H]1CC[C@H](CNc2ccc(S(=O)(=O)NC(=O)c3ccc(N4CCN(CC5=C(c6ccc(Cl)cc6)CC(C)(C)CC5)CC4)cc3Oc3cnc4[nH]ccc4c3)cc2[N+](=O)[O-])CC1	CDPK1 (Plasmodium falciparum, UniProt P62344)	cell-free assay	competition with immobilised ligand	1 µM	remaining binding	80%
Cc1nc(C2CCN(C(=O)c3ccc(OC(F)(F)F)cc3N)CC2)c2ncc(N3CCN(C)CC3)cc2n1	HTR2A (Homo sapiens, UniProt P28223)	binding	radioligand binding	10 µM	inhibition	4.68%
CNC(=N)NCCC[C@H](NC(=O)[C@H](CC(C)C)NC(=O)NNC(=O)[C@H](Cc1ccccc1)NC(=O)[C@H](CO)NC(=O)[C@H](CC(N)=O)NC(=O)[C@@H](Cc1cccnc1)NC(=O)[C@H](N)Cc1ccc(O)cc1)C(=O)NCC(N)=O	HTR1A (Homo sapiens, UniProt P08908)	ligand displacement	radioligand	10 µM	inhibition	30.9%

Repeated from above (series 2):
Structure (SMILES)	inhibition [%]
c1cncc(C2CCCCN2)c1 (racemic)	4
COC1c2c(ccc3c2OCO3)-c2ccc3cc4c(cc3c2N1C)OCO4 (stereo not drawn)	19
C[C@H]1CCCC(=O)CCC/C=C/c2cc(O)cc(O)c2C(=O)O1	-39
CCC1=N[C@H]2C[C@@]3(C(=O)N(OC)c4ccccc43)[C@H]3C[C@@H]1[C@@H]2CO3	-9
